Experimental data collected from several papers.
± gives the spread as reported.

SMILES | tested on | test | test system | conditions | scale | quantity | result
CC[C@H](C)[C@@H]1NC(=O)[C@H](Cc2ccc(O)cc2)NC(=O)CCCSC[C@@H](C(=O)N(CC(=O)N[C@@H](CC(C)C)C(=O)NCC(N)=O)Cc2ccc(F)cc2)NC(=O)[C@H](CC(N)=O)NC(=O)[C@H](CCC(N)=O)NC1=O | – | – | healthy human, plasma | intranasal, 50 µg every 3 h, after last dose | – | Cmax | 0.039 ng/mL
C[C@]12C[C@H](c3ccc(S(C)(=O)=O)cc3)C3=C4CC[C@@H](O)C=C4CC[C@H]3[C@@H]1CC[C@@]2(O)C(F)(F)C(F)(F)F | – | – | human, plasma | oral, 5 mg multiple doses, day 28 | – | Cmax | 8.75 ng/mL
CCCCCCCCCCCCCCCC(=O)N[C@@H](CCCCN)C(=O)N[C@@H](CCCCN)C(=O)N[C@@H](CO)C(=O)N[C@@H](CCCNC(=N)N)C(=O)N[C@@H](C)C(=O)N[C@@H](CC(C)C)C(=O)N[C@@H](Cc1ccccc1)C(N)=O | – | UHPLC-MS/MS | human patients, plasma | intravenous, 0.5 mg/kg, over 2 h | – | Cmax | 2600 ng/mL
O=C(O)[C@H]1O[C@@H](N(Cc2ccc(C(F)(F)F)nc2)c2ccc(Cc3c[nH]c4ncc(Cl)cc34)cn2)[C@H](O)[C@@H](O)[C@@H]1O | – | – | human, male, plasma | oral, 400 mg of [14C]-pexidartinib single dose, as metabolite | – | Cmax | 3400 ng/mL
CC(C)C[C@H](NC(=O)[C@H](CCCN)NC(=O)CNC(=O)[C@@H](NC(=O)[C@H](C)NC(=O)[C@@H]1CSCSC[C@H](NC(=O)CC[C@H](N)C(=O)O)C(=O)N[C@@H](CC(N)=O)C(=O)N[C@@H]([C@@H](C)O)C(=O)N[C@@H](C)C(=O)N[C@@H]([C@@H](C)O)C(=O)N1)[C@@H](C)O)C(=O)N[C@@H](C)C(=O)N[C@@H](CCC(=O)O)C(=O)N[C@@](C)(Cc1ccccc1)C(=O)N[C@@H](CC(C)C)C(=O)N[C@H](C(=O)N[C@@H](CCCNC(=N)N)C(=O)N[C@@H](CO)C(=O)N[C@@H](CO)C(=O)N[C@@H](CC(N)=O)C(=O)N(C)[C@@H](CC(N)=O)C(=O)N[C@@H](Cc1ccccc1)C(=O)NCC(=O)N1CCC[C@H]1C(=O)N[C@@H](CCCCNC(=O)CC[C@H](NC(=O)CC[C@H](NC(=O)CCCCCCCCCCCCCCCCCCC(=O)O)C(=O)O)C(=O)O)C(=O)N[C@@H](CC(C)C)C(=O)N1CCC[C@H]1C(=O)N1CCC[C@H]1C(=O)N[C@H](C(=O)N[C@@H](CCC(=O)O)C(=O)N[C@H](C(=O)NCC(=O)N[C@@H](CO)C(=O)N[C@@H](CC(N)=O)C(=O)N[C@H](C(=O)N[C@@H](Cc1ccc(O)cc1)C(N)=O)[C@@H](C)O)C(C)C)[C@@H](C)O)C(C)C | – | – | healthy human, plasma | subcutaneous, 0.04 mg single dose, geometric LS mean | – | Cmax | 4.4 ng/mL
C[C@H](CCC(=O)NCC(=O)O)[C@H]1CC[C@H]2[C@@H]3[C@H](O)C[C@@H]4C[C@H](OS(=O)(=O)O)CC[C@]4(C)[C@H]3CC[C@]12C | – | – | human, plasma | concentration not given, endogenous control diurnal | – | Cmax | 169 ± 41 nM
CC(=O)c1cccc(CN2CCCC(CCC(=O)NCc3ccccc3F)C2)c1 (stereo not drawn) | Trypanosoma cruzi | reporter mRNA translation, inhibitor, refers to: capped polyadenylated Renilla luciferase mRNA | cell-free extract | concentration not given | reference: control RNA | relative translation | 118%
CC(CCC(=O)NCC(=O)O)C1CCC2C3CCC4CC(OC5OC(C(=O)O)C(O)C(O)C5O)CCC4(C)C3CC(O)C12C (stereo not drawn) | – | – | human, plasma | concentration not given, endogenous control diurnal | – | Cmax | 303 ± 75 nM
COc1cc2c(cc1O)CCN1C[C@@H](CC(C)C)[C@@H](O)C[C@H]21 | – | refers to: non-deuterated analyte | healthy human male, plasma | oral, 25 mg, geometric mean, [14C]-tetrabenazine dosed | – | Cmax | 8.03 ng/mL
O=C(NN(c1ccccc1)c1ccccc1)c1ccc([N+](=O)[O-])o1 | Trypanosoma cruzi | reporter mRNA translation, inhibitor, refers to: capped polyadenylated Renilla luciferase mRNA | cell-free extract | concentration not given | reference: control RNA | relative translation | 103%
COc1cc2c(cc1OC)[C@H]1C[C@H](O)[C@H](CC(C)C)CN1CC2 | – | refers to: non-deuterated analyte | healthy human male, plasma | oral, 25 mg, geometric mean, [14C]-tetrabenazine dosed | – | Cmax | 6.62 ng/mL
CCOc1cc(CC(=O)N[C@@H](CC(C)C)c2ccccc2N2CCCCC2)ccc1C(=O)O | – | – | human, plasma | oral, dose not given, geometric least-squares mean, added: omaveloxolone once daily | – | Cmax | 15.8 ng/mL
CCCCCCCOc1ccc(CC[C@](N)(CO)COP(=O)(O)O)cc1C(F)(F)F | – | – | healthy human males, plasma | 0.125 mg, day 21 | – | Cmax | 1.43 ng/mL
CC1(C)CC[C@]2(NC(=O)C(C)(F)F)CC[C@]3(C)[C@H](C(=O)C=C4[C@@]5(C)C=C(C#N)C(=O)C(C)(C)[C@@H]5CC[C@]43C)[C@@H]2C1 | – | – | human, plasma | dose not given, added: gemfibrozil | reference: without gemfibrozil | Cmax | no effect
CN(C(=O)C(C)(C)c1cc(C(F)(F)F)cc(C(F)(F)F)c1)c1cnc(N2C[C@H]3COCCN3C[C@H]2CO)cc1-c1ccc(F)cc1CO | – | – | human, plasma | oral, 120 mg, geometric mean | – | Cmax | 55.2 ng/mL

Some of these lines once more:
SMILES | tested on | test | test system | conditions | scale | quantity | result
CCOc1cc(CC(=O)N[C@@H](CC(C)C)c2ccccc2N2CCCCC2)ccc1C(=O)O | – | – | human, plasma | oral, dose not given, geometric least-squares mean, added: omaveloxolone once daily | – | Cmax | 15.8 ng/mL
CCCCCCCCCCCCCCCC(=O)N[C@@H](CCCCN)C(=O)N[C@@H](CCCCN)C(=O)N[C@@H](CO)C(=O)N[C@@H](CCCNC(=N)N)C(=O)N[C@@H](C)C(=O)N[C@@H](CC(C)C)C(=O)N[C@@H](Cc1ccccc1)C(N)=O | – | UHPLC-MS/MS | human patients, plasma | intravenous, 0.5 mg/kg, over 2 h | – | Cmax | 2600 ng/mL
